Published values gathered from unrelated publications.
Each numbered part is a random draw from the data of one study; scales do not carry over between parts. Substitutions count along the parent as printed.

Series 1
Target: Histone acetyltransferase KAT6A, winged helix 2, GST fusion (KAT6A, Homo sapiens, UniProt Q92794, residues 85-181)
Method: protein binding microarray
Molecule type: double-stranded DNA, one strand shown
Medium: in vitro
Tested at: not given
Notes: 8-mer, flanks averaged, mean of 2 arrays, mostly near background
Baseline: not given
Reading: higher = stronger binding
Target sequence (chain): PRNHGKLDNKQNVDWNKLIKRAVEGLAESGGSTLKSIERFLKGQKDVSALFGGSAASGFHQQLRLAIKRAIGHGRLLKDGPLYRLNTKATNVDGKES
The E-score of `GGGGTTAA` is reported as -0.139.
With `TGAGGTAA` the E-score was 0.0321.
With `CAGAACGA` the E-score was 0.041.
With `GGGATCAA` the E-score was 0.0214.
With `ACCGTGAA` the E-score was -0.0569.
`AATCCGCA` has an E-score of 0.0472.
With `ACCTAGAG` the E-score was -0.0464.
The E-score of `CCCGAGCC` is reported as 0.134.
With `CGAGACCA` the E-score was -0.0368.
For `ACGTACCC`, the E-score was -0.129.
For `AACATTTA`, the E-score was -0.131.
The E-score of `CAGGTACC` is reported as -0.0645.
`GCTGCTCA` has an E-score of 0.0283.
For `AGAGAGCT`, the E-score was -0.147.
`ACTACTGC` has an E-score of -0.188.
The E-score of `CGCCCGAG` is reported as 0.109.
`AATCGGTG` gave an E-score of -0.0397.
`GTTTTATA` has an E-score of 0.0258.
`CTTTATGA` has an E-score of -0.00786.
`GCATATAA` gave an E-score of 0.103.
With `GCGCATCA` the E-score was 0.0268.
The E-score of `AGAGTACC` is reported as -0.132.
With `ACGTATAC` the E-score was -0.237.
The E-score of `ACTTTGTC` is reported as -0.131.

Series 2
Target: NFE2L3, bZIP domain (human)
Method: DHFR protein complementation
Medium: yeast
Notes: single substitutions, most at no-binding floor
Baseline: wild-type JUN-FOS pair
Reading: higher = stronger binding
Starting sequence: JUN, bZIP domain (human); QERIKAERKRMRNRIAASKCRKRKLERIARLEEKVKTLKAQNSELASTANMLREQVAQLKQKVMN; partner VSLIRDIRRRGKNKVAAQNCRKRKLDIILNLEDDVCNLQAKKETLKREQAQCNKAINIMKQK
For `R30V`, the binding fitness was -1.35 natural log.
With `R53D` the binding fitness was -1.68 natural log.
`R53G` gave a binding fitness of -1.61 natural log.
`S47W` gave a binding fitness of -1.37 natural log.
The binding fitness of `E54V` is reported as -1.59 natural log.
`T48S` gave a binding fitness of -1.32 natural log.
With `Q41S` the binding fitness was -1.41 natural log.
With `I28L` the binding fitness was -1.44 natural log.
For `E32Q`, the binding fitness was -1.43 natural log.
The binding fitness of `I28C` is reported as -1.43 natural log.
For `L31F`, the binding fitness was -1.53 natural log.
The binding fitness of `A57H` is reported as -1.59 natural log.
`Q41H` has a binding fitness of -1.35 natural log.
`N42Y` gave a binding fitness of -1.57 natural log.
`M51K` has a binding fitness of -1.61 natural log.
For `K36S`, the binding fitness was -1.4 natural log.
For `N42F`, the binding fitness was -1.61 natural log.
With `S43V` the binding fitness was -1.52 natural log.
The binding fitness of `L52H` is reported as -1.55 natural log.
The binding fitness of `A29G` is reported as -1.5 natural log.

Series 3
Target: RNA binding protein fox-1 homolog 2, RRM domain, GST-SBP tag (RBFOX2, Homo sapiens, UniProt O43251-10, residues 100-194)
Method: RNA Bind-n-Seq
Molecule type: RNA
Medium: in vitro
Tested at: 365 nM
Notes: natural RNA segment, single round, ends assumed
Baseline: no-protein control
Reading: higher = stronger binding
All sequences stand within: GGGAGUUCUACAGUCCGACGAUC … UGGAAUUCUCGGGUGCCAA
Construct (chain): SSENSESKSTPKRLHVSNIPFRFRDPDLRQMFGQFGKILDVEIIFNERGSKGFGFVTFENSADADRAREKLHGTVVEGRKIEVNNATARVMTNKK
For `UUCUGUUUCUGAGGACUUUUAGCAAGAGACAGAAAAUCCUGCCAUUCUGGUUGGAAAUUAUAUAAACCAACAUGACAAUAACUGUUUCCCCCCAAAAGGCUCAGGAGCUG`, “RBNS enrichment (R)” read 0.376.
For `CAUGACAUUCCAAGUUGACAUUUUUUUUUCAUUUUAAUUAAAAUUUGAAAUUCUGAACACCGUCAGCACCCUCUCUUCCCUAUCAUGGGUCAUCUGACCCCUGUCCGUCU`, “RBNS enrichment (R)” read 0.371.
`AUUUUUUACUCCCGCUAAUUUCAAUCAAUCGUUUUCAAAAGCGCACGAGAUUCACUCAUUGGAUUUAUGCAGUGCCCUGUCUGUAUAAAAACUCUUAAGAGUUCCUUUAU` — result for “RBNS enrichment (R)”: 0.639.
`ACUUCCAAGAAGAAAAACUGUUCUGUUGUAAAAAAUAUAAUUGCUCUUAAUUCUUGGGGAGGUUACUAAUAGCAGUAGGAUAGAAUUUUAUGAGGUUACCUACAACUACU` — result for “RBNS enrichment (R)”: 0.41.
For `AAGGUAUCUGUUUUGUAAGUUUGGAUUUUUGUAUAUCUGGUUUAUCUUAAGCUUCUCUACUGAGGCAUUCUGAGUAGUGGCCAUCAGAGUCUCCUGCCUGCCCACAGAGC`, “RBNS enrichment (R)” read 0.378.
Under “RBNS enrichment (R)”, `UACUUUUCGUUGGCAAGGUGACCCGGCCUGAGGAGGGACUCCUUCUGAAACUCAUGGGCUUACACAGAGGGAGCCAGGCAUGUUCUUCAGCCCAUCCAUCUCUUGGUUGC` is recorded as 7.14.
`UCCAUAUAGUAAAAUAACAUUUCUGCCCAGGAUAAUAGUCACAGUUUUCCAGGGAGGGAAUGAUAUAAUUUUCAUGACAAUGUCAUGUGCUGAUAGAAUUUCUCCAUUGA` — result for “RBNS enrichment (R)”: 0.403.
`CAGCUGCUGCUGCUGUCGUCUGCCCGCCAUUCAGCUAACCGUUCUGUUGAGGUCCUGCCUUGUGCUUUCCUAGUGGAAGCCGUCCUUUGCCCCCGUUGAUGACUUGAGCC`: “RBNS enrichment (R)” 0.389.
Under “RBNS enrichment (R)”, `AGCUUUGGAUUGUGCAUUCCUAGGCACAAAAUUACCUCAUUCUUCCUAACAAGCAAUCUGGGACCUGAUUUUCCACCUUUUUUCUCUUUUCUUCCCUUCCUUUGUUUUCA` is recorded as 1.09.
`AACAGUAUCUAAUUAUAAAUUAGCUGUAGAUAUCAGGUGCUUCUGAUGAAGUGAAAAUGUAUAUCUGACUAGUGGGAAACUUCAUGGGUUUCCUCAUCUGUCAUGUCGAU` — result for “RBNS enrichment (R)”: 0.296.
`GGAAGGUGACAUCUGUGUUUCGUUUUAGCUGAGGUUGGCAGAAACGUUCCCAAACUCCCCCAGCCCUGGACCCCAGCAGAUGAGGAAACGGCCCCAUUUACUGACCCCGC` — result for “RBNS enrichment (R)”: 0.28.
Under “RBNS enrichment (R)”, `CUAUUUUACUAGUGUUUUAUAUGAACAAAGUACUGCAGAAGUUAAACCUGUGUUGUAUUUUUUCUGAGAUGUUUUGCUUUAAGAGAUACUUUUUGCUCAGUUUUUAUAUG` is recorded as 0.848.

Series 4
Target: RING finger protein unkempt homolog, zinc fingers 1-6, GST-SBP tag (UNK, Homo sapiens, UniProt Q9C0B0, residues 30-357)
Method: RNA Bind-n-Seq
Molecule type: RNA
Medium: in vitro
Tested at: not given
Notes: RNA with constant flanks, human and mouse sites, ends assumed
Baseline: input RNA pool
Reading: higher = stronger binding
All sequences stand within: GGGAGUUCUACAGUCCGACGAUC … CAACAGAGGAUUGAGCAUCA
Construct (chain): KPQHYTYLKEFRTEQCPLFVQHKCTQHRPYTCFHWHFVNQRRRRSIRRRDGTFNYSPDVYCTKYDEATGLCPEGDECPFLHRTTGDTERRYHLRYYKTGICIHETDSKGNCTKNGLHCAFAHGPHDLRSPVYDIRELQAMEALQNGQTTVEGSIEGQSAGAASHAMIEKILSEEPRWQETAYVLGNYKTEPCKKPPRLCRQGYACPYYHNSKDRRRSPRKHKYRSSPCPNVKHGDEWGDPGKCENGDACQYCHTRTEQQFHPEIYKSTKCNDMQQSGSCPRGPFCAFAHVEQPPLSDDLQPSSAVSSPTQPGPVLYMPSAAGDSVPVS
The bound/input enrichment of `GCCCACUUAACUGUGAAAAAGAUAUUUGUUGGUGGCAUUAAAGAAGACACUGAAGAACAUCACCUAAGAGAUUAUUUUGAACAGUAUGGAAAAAUUGAAGUGAUUGAAAUCAUGACUGAC` is reported as 0.144 ratio.
With `GCGUCACCAAGGUGUCCUGACCGCCAGAAUGUCCUGACCACCAAGGUGUCCUAACCUACCGGCCCCUCUGCUGGAUACCCCUCUUGGACCUGUAGCCACCUGCACCAGGAGCUGGACCUG` the bound/input enrichment was 0.0678 ratio.
With `GCAGAUGAAGUAGAGUUUACUGUGGUUCCUGAUAUGCUCUCUGCCCAAAGAAAUCAUGCUAUUAGGAUUAAAAAACUUCCCAAGGGCACGGUUUCAUUCCAUUCCCAUUCAGAUCAUCGU` the bound/input enrichment was 0.308 ratio.
`GCACAUGCCACUGUCACCAAAACAAACAACUACCACUUUCCAAAUUUCAUUCAGAACCAUUUUAGUGUUUUCCUAUUCCCUACCCCUCCCACUACUUUCAAUGAUGAAAUACCCUAAGUU` gave a bound/input enrichment of 7.03 ratio.
For `GACUUUUGUGUAAAGUAAUGCAUGCAAUCUUGUAAUGUGGCCUGAAAACAAGCUAACUGUAUUAGAAACUAUUCAAAAACUAGGUAUUUUUAGUGACCUGUAGGCAGUGGCAAAUACAGA`, the bound/input enrichment was 3.08 ratio.
For `UCAGGUACUUUGGAGGCCACAGAAAAGGAACCAGUGAACAAGGAAUCGGAGGAAAUGAGUGUAGUAUUUAUUUCUAAUUUGCCUAACAAAGGAUAUUCUACAGAAGAAAUUUACAACUUA`, the bound/input enrichment was 0.342 ratio.
With `GUUAUUGAAAAACUCUUGACCUCUUACGGAUUCAUUCAGUGUUCAGAACGGCAAGCUAGACUUUUCUUCCACUGUUCACAAUAUAAUGGCAACCUCCAAGACUUAAAAGUAGGAGAUGAU` the bound/input enrichment was 0.271 ratio.
The bound/input enrichment of `ACACAGAUAAGGACACAGGAUGAAAGACGUGUGAGUUAAGUCUCAGCUUUCUGUAGAGAGAUAGACUAAAAAACAAAUUCAGGAAACCUAGAAAACAAUUAUUUCCCCUGGGCACAGACA` is reported as 30.6 ratio.
The bound/input enrichment of `AUCAAGGGUGAAAUCCCAUUCUGCUAGCAAAAUGCAGUAUUCACACCACUGUGAGCACCUUUUAGAGAGACUGAAUAAGCAACGGGAAGCGGGAUUUCUUUGCGACUGUACCGUAGUGAU` is reported as 0.608 ratio.
For `AAUGUGGAAACAGUAGAAUAUAAGAACAUUUGUUUCACAGUAUGGGAUGUUGGUGGUCAAGAUAAAAUUAGGCCUCUCUGGAGGCAUUACUUCCAGAAUACCCAGGGUCUCAUUUUUGUG`, the bound/input enrichment was 1.15 ratio.
`GAUGAGGCCCAGAAGCCUUACCUGGUACAACGGAGAGGAGCUGAAUUUGCUUUGACAACUAUAGUAAAGCAUUUUGGUGGUGAAAUGGCAGUGAAGUUGCCACAUCUCUGGGAUGCUAUG` has a bound/input enrichment of 0.1 ratio.

For quick reference, copied from above (series 3):
`CAGCUGCUGCUGCUGUCGUCUGCCCGCCAUUCAGCUAACCGUUCUGUUGAGGUCCUGCCUUGUGCUUUCCUAGUGGAAGCCGUCCUUUGCCCCCGUUGAUGACUUGAGCC`: “RBNS enrichment (R)” 0.389.
Under “RBNS enrichment (R)”, `AGCUUUGGAUUGUGCAUUCCUAGGCACAAAAUUACCUCAUUCUUCCUAACAAGCAAUCUGGGACCUGAUUUUCCACCUUUUUUCUCUUUUCUUCCCUUCCUUUGUUUUCA` is recorded as 1.09.
`AACAGUAUCUAAUUAUAAAUUAGCUGUAGAUAUCAGGUGCUUCUGAUGAAGUGAAAAUGUAUAUCUGACUAGUGGGAAACUUCAUGGGUUUCCUCAUCUGUCAUGUCGAU` — result for “RBNS enrichment (R)”: 0.296.
`GGAAGGUGACAUCUGUGUUUCGUUUUAGCUGAGGUUGGCAGAAACGUUCCCAAACUCCCCCAGCCCUGGACCCCAGCAGAUGAGGAAACGGCCCCAUUUACUGACCCCGC` — result for “RBNS enrichment (R)”: 0.28.
Under “RBNS enrichment (R)”, `CUAUUUUACUAGUGUUUUAUAUGAACAAAGUACUGCAGAAGUUAAACCUGUGUUGUAUUUUUUCUGAGAUGUUUUGCUUUAAGAGAUACUUUUUGCUCAGUUUUUAUAUG` is recorded as 0.848.
